Literature values that unrelated publications cite.
Lines come from different studies, so protocols differ. Values joined by “and” are separate records of one study, mostly repeats; a detail may differ. ± gives the spread as reported.
Oprk1: Kappa-type opioid receptor (Oprk1, Mus musculus, UniProt P33534)
Chain of UniProt P33534 (whole entry, looked up): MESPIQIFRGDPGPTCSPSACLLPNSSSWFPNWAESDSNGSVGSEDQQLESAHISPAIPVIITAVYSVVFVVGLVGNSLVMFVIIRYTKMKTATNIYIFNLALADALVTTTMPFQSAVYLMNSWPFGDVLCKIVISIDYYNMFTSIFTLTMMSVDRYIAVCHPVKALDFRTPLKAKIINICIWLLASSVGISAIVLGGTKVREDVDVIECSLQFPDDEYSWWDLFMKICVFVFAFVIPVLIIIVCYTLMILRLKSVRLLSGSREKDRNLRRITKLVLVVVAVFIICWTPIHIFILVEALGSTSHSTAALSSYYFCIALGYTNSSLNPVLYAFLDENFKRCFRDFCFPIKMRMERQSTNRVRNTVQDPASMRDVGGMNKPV
Chain of UniProt P14842 (whole entry, looked up): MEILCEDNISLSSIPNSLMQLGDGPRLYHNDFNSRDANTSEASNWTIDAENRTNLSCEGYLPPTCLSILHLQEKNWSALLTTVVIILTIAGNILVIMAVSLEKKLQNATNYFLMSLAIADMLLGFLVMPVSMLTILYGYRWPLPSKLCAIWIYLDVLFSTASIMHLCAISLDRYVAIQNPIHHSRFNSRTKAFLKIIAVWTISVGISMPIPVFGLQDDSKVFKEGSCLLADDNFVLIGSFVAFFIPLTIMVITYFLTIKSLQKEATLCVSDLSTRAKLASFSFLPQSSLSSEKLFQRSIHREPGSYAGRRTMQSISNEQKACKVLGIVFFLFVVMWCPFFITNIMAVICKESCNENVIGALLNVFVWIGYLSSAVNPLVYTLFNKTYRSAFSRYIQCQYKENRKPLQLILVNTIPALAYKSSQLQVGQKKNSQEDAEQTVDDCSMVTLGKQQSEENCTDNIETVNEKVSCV

The Ki of `O=C(NC1C=C[C@H]2[C@H]3Cc4ccc(O)c5c4[C@@]2(CCN3CC2CC2)C1O5)c1cccc(I)c1` (stereo partly drawn) is reported as 0.006 nM (Oprk1).
`CNC(C)C(=O)c1ccc(C)cc1` (stereo not drawn) gave a Ki of 3400 nM (dopamine transporter).
The Kd of `NCC1C=Nc2nc(N)[nH]c(=O)c21` (stereo not drawn) is reported as 891 nM (class I riboswitch, Can; first of two cooperative sites).
`CCCCCCC(C)(C)c1cc(OC)c2c(c1)OC(C)(C)c1ccc(C(=O)OC)cc1-2` has a Ki of 529 nM (CB2 receptor; binding).
With `O=C(NC1CC[C@@]2(O)[C@H]3Cc4ccc(O)c5c4[C@@]2(CCN3CC2CC2)C1O5)c1cccc(I)c1` (stereo partly drawn) the EC50 was 0.22 ± 0.02 nM (Oprk1).
The Ki of `C=C1CCC2C(C1)c1c(OC)cc(C(C)(C)CCCCCC)cc1OC2(C)C` (stereo not drawn) is reported as 529 nM (CB1 receptor; binding).
`N[C@H]1C[C@H]1c1ccccc1` gave an IC50 of 33000 nM and 35000 nM (tyramine oxidase (Arthrobacter sp.); enzyme activity, inhibitor; pH 7.2, literature data, together with: benzylamine 0.6 mM substrate).
`Cc1c(C(=O)NN2CCCCC2)nc(-c2ccc(Cl)cc2Cl)n1-c1ccc(F)cc1` has a Ki of 52 nM (CB1 receptor; binding).
`CC(NC(C)(C)C)C(=O)c1cccc(Cl)c1` (stereo not drawn) has an IC50 of 840000 nM (serotonin 5-HT3AB receptor; antagonist).
With `CC1CCN(C(=O)c2ccc3c(c2)c2c(n3S(=O)(=O)c3ccccc3)CN(C3CCCC3)C2)CC1` the Ki was 259 nM (CB1 receptor; binding).
`COC(=O)[C@@H]1C[C@H](OC(C)=O)C(=O)[C@H]2[C@@]1(C)CC[C@H]1C(=O)O[C@H](c3ccoc3)C[C@]21C` has a Ki of 4.1 ± 0.8 nM (kappa opioid receptor V108L).
`COc1cc(C[C@@H](C)N)c(OC)cc1I` has an EC50 of 19.8 nM (5-hydroxytryptamine receptor 2A (Rattus norvegicus, UniProt P14842)).

For quick reference, copied from above:
`N[C@H]1C[C@H]1c1ccccc1` gave an IC50 of 33000 nM and 35000 nM (tyramine oxidase (Arthrobacter sp.); enzyme activity, inhibitor; pH 7.2, literature data, together with: benzylamine 0.6 mM substrate).
